# Published values from different studies.
# Each line is one published result; not all experiments were run side by side. Several values in a cell are separate wells, animals, samples, runs or records. Numbers after ± are the reported error.
Structure (SMILES),test,system,setting,how to read,quantity,result
O=C(Nc1ccc(OC(F)(F)Cl)cc1)c1cnc(N2CC[C@@H](O)C2)c(-c2ccn[nH]2)c1,,"Sprague-Dawley rat, male, plasma","oral, 8 mg/kg",,CL/F,71.8 ± 14.8 mL/min/kg
C1=C/COCc2cc(ccc2OCCN2CCCC2)Nc2nccc(n2)-c2cccc(c2)COC/1,LC-MS/MS,"Sprague-Dawley rat, male, plasma","oral, 36 mg/kg, together with: voriconazole 30 mg/kg oral",,CL/F,11200 ± 5880 mL/h
O=C1c2ccccc2C(=O)N1CCCN1CCN(C(c2ccc(F)cc2)c2ccc(F)cc2)CC1,,"male Sprague-Dawley rat, whole blood","oral, 10 mg/kg",,CL/F,2650 ± 1440 mL/min/kg
Oc1ccc(/C=C/c2cc(O)cc(O)c2)cc1,,"male Wistar rats, plasma","oral, 10 mg/kg",,CL/F,79.3 ± 17.3 mL/min/kg
Nc1ccn([C@@H]2O[C@H](CO)[C@@H](O)C2(F)F)c(=O)n1,,"Sprague-Dawley rat, male, plasma","intravenous, 5 mg/kg",,CL/F,1.09 ± 0.17 (mg/kg)/(µg/mL)/h
CC(=O)CC(c1ccccc1)c1c(O)c2ccccc2oc1=O (centres unmarked),,"Sprague-Dawley rat, male, plasma","oral, 0.3 mg/kg/day, 1 week, without PNS",,CL/F,0.129 ± 0.00883 mL/min/kg
CCc1c(-c2ccccc2)c(-c2ccccc2)nn1-c1ccccc1-c1cccc(OCC(=O)O)c1,,Sprague-Dawley rat,"oral, dose not given",,CL/F observed,28.6 mL/min/kg and 33.7 mL/min/kg
CC[C@@H]([C@H](C)O)n1ncn(-c2ccc(N3CCN(c4ccc(OC[C@@H]5CO[C@@](Cn6cncn6)(c6ccc(F)cc6F)C5)cc4)CC3)cc2)c1=O,,"Sprague-Dawley rats, plasma","oral, 40 mg/kg, together with: zanubrutinib 16 mg/kg",,CL/F,13 ± 6.33 mL/min/kg
C=CC(=O)N1CCC(Oc2cc3c(Nc4ccc(Cl)c(Cl)c4F)ncnc3cc2OC)CC1,,"male Sprague-Dawley rats, plasma","oral, 2 mg/kg, together with: schisandrin A pretreatment 20 mg/kg daily 1 week",,CL/F,5 ± 0.667 mL/min/kg
C=CC(=O)N1CCC([C@@H]2CCNc3c(C(N)=O)c(-c4ccc(Oc5ccccc5)cc4)nn32)CC1,,"Sprague-Dawley rats, plasma","oral, 16 mg/kg, together with: posaconazole 40 mg/kg",,CL/F,96.3 ± 25.8 mL/min/kg
C#Cc1cccc(Nc2ncnc3cc(OCCOC)c(OCCOC)cc23)c1,UPLC-MS/MS,"Wistar rat, male, plasma","oral, four weeks, together with: CA 175 mg/kg, low dose",reference: control,CL/F decrease,11%

# For quick reference, copied from above:
Structure (SMILES),test,system,setting,how to read,quantity,result
CC[C@@H]([C@H](C)O)n1ncn(-c2ccc(N3CCN(c4ccc(OC[C@@H]5CO[C@@](Cn6cncn6)(c6ccc(F)cc6F)C5)cc4)CC3)cc2)c1=O,,"Sprague-Dawley rats, plasma","oral, 40 mg/kg, together with: zanubrutinib 16 mg/kg",,CL/F,13 ± 6.33 mL/min/kg
